Measurements gathered from unrelated publications.
A part holds a random share of what one study measured.

Study 1
Target: Fragile X messenger ribonucleoprotein 1, C-terminal low-complexity region (Fmr1, Mus musculus, UniProt P35922)
Technique: RNA Bind-n-Seq
Molecule type: RNA
Sample: in vitro
Tested at: 200 nM
Notes: whole 134-nt RNA, ends assumed
Together with: 150 mM KCl
Reference: input library
Reading: higher = stronger binding
Quantity: log2 enrichment
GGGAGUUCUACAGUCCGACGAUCGCAGGAAGUAAAAACACAUGGAAAUGCUUCGGAUAGUGGCAGGGGUGGGGGUUGCUAAGGAAAGGGUGGGAUGGGAGUGGGUAAAGAGUUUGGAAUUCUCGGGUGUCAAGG: 0.0354
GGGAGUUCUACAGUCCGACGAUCUAGUGAUGAAAAAUUUCUCCCUUCUAGGUUUCCCUUGGGGGCUUUGAAAUAACACCACCAGUGGUCUUAAGGUUGAAGUGUGGUUCAGGGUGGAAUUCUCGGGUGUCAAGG: -0.182
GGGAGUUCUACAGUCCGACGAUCAAGUCCUGUGCUACACAUCGUAUGUACCGAAUCGGGGCCCGGGGCCCGGCCCGGGGAAAGUAUUAUGUUACGCCGUUCGGAUCUGCACUUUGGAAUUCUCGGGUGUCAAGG: -0.624
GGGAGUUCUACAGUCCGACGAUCUGUGCUACACAUCGUAUGUACCGAAUCGGGGAAAAAAAGGGGAAAAAAAGGAAAAAAAGGGGAAAGUAUUAUGUUACGCCGUUCGGAUCUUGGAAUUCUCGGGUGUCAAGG: -0.0854
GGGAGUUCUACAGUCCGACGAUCCAAGUCCUGUGCUACACAUCGUAUGUACCGAAUCGGGUUUUUGGGAAAGGGAGGGAAAGUAUUAUGUUACGCCGUUCGGAUCUGCACUUCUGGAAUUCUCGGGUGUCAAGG: 0.945
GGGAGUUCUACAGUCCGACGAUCGCAGGAAGUAAAAACAAAUGGAAAUGCUUCGGAUAGUGGCAGGGGUGGGGGUUGCUAAGGAAAGGGUGGGAUGGGAGUGGGUAAAAAAUUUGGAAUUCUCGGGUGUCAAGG: -0.189
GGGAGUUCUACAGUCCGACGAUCAGUCCUGUGCUACACAUCGUAUGUACCGAAUCGGGGAGGGGUUUGGGGAAAAAGGGGAAAGUAUUAUGUUACGCCGUUCGGAUCUGCACUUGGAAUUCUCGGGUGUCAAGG: 0.917
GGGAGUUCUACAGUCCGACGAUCUGGGAGGUGGAUAUUGUUUAUUUUUUUAGCUCAUUUCCAGGGGUGGGAAUUUUUUUUUAAUAUGUGUCAUGAAUAAAGUUGUUUUUGAAAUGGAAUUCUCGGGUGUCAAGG: 0.224
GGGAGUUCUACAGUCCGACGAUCCCUGUGCUACACAUCGUAUGUACCGAAUCGGGGAAAAAAGGGAAAAAAGGGAAAAAAGGGGAAAGUAUUAUGUUACGCCGUUCGGAUCUGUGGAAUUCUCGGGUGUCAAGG: -0.697
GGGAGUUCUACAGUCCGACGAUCCCUCAAGUCCUGUGCUACACAUCGUAUGUACCGAAUCGGGUGGGGUGGGGUGGAAAGUAUUAUGUUACGCCGUUCGGAUCUGCACUUCCAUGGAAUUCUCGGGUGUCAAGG: 1.05

Study 2
Target: Sal-like protein 4, full length isoform A (SALL4, Homo sapiens, UniProt Q9UJQ4, residues 1-1053)
Sequence of UniProt Q9UJQ4 (whole entry, looked up): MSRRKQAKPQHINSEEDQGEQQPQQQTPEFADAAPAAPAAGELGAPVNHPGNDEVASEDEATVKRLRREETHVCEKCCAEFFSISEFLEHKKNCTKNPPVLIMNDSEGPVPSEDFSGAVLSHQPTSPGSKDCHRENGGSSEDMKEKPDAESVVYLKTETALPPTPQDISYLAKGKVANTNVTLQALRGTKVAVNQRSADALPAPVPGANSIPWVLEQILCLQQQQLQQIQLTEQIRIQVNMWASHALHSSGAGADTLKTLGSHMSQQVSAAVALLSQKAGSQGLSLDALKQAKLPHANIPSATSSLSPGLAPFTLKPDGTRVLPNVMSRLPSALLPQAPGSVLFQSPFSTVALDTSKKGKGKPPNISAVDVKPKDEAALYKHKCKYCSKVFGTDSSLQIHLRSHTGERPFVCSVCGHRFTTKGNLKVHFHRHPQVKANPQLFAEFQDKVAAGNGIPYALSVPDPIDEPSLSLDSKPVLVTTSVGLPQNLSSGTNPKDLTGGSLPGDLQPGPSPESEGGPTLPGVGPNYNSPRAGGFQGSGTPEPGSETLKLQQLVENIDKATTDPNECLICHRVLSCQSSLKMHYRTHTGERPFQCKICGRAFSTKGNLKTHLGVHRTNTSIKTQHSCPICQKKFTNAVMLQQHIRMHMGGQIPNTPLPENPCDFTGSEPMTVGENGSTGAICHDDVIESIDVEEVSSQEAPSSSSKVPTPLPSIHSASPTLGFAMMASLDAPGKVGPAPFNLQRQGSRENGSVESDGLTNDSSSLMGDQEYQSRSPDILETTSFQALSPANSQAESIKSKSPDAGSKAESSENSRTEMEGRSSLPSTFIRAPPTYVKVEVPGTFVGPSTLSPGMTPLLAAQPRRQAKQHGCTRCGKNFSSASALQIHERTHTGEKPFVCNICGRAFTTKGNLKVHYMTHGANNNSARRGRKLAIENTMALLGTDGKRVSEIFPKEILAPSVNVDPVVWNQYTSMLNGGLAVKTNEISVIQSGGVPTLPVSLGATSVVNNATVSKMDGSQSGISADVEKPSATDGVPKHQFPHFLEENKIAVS
Technique: universal PBM
Molecule type: double-stranded DNA, one strand shown
Sample: in vitro
Tested at: 600 nM
Notes: 8-mer, flanks averaged, mean of replicates
Reading: higher = stronger binding
Quantity: E-score
AGTCATAC: 0.118
AATTCCGC: -0.0546
AATGACAA: 0.231
AAACCTTA: 0.18
ATGTTTAA: 0.305
AAGACTGC: -0.165
AAAATTGA: 0.302
CGAGTAGA: -0.116
CGGAAAAA: 0.203
CACTCGTA: -0.0216
CAGTATCA: 0.0755
ATTGGCCC: -0.164
GCGGTCTA: -0.012
CTATATGC: 0.291
CGCGATAC: -0.147
GGAATTAC: 0.0686
ACAAGCTC: -0.185
CCAACCGC: -0.258
GCGCCCTA: -0.25
ACATCAAA: 0.186
ATCCACTA: 0.0888
AGAGGACG: -0.121
CCGTTAGG: -0.224
ATGGTGGG: -0.256
ACCTCTTA: 0.0678

Study 3
Target: Hepatocyte nuclear factor 3-alpha (Foxa1, Mus musculus, UniProt P35582, residues 1-468, full length assumed)
Technique: EMSA with sequencing
Molecule type: double-stranded DNA, one strand shown
Sample: in vitro
Tested at: 10 and 20 nM
Notes: whole designed probe, mean of two concentrations, ends assumed
Reference: negative control set to 0
Reading: higher = stronger binding
Quantity: normalised bound fraction
Residues (chain): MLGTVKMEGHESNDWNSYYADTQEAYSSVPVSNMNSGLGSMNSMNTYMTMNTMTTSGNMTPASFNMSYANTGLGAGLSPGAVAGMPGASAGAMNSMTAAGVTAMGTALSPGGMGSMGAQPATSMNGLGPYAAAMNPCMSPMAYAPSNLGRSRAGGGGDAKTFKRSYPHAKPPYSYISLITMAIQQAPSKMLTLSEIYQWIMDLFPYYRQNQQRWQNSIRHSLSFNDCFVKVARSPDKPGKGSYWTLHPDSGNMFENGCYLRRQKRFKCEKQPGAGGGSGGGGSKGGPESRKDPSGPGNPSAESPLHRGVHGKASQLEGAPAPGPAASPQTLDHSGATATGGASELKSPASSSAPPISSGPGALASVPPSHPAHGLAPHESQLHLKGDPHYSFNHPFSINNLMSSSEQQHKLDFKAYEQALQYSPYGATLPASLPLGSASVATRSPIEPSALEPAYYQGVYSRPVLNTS
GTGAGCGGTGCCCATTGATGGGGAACAATTACAAGTTCTATGACCTTATTGTAAGGTGTCTCAAACTTTTTTGAATTGGGAGAGTACATTTAGAGTAACCAAACTGAGTCAGTGCAAAGTCATCTGAGCTGGGCAGATAGCCGAGCCAGGAGAAATCTCAACTGGATGGTGCCAGAACTGGTAGGGGAAGCCTCTAGTACTGCTACCAAATATATTGTGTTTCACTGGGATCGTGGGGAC: -0.0501 ratio
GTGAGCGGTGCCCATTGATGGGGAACCCCTCAAGACACATAATATTTGCAGAATTCTGTGGACAGAGGATTTAGTACACACTGCTTTCATCCTGTGATTGCCCTAAGTACTTTCAGAAATGTAATCTGTCCTGACACATGTGGTCTTTGAATATGGTCAAACACCTCATTCTTCAGCTTTGGTATCTCATAACAAATTGTTGCATAAAGTATGAAAAATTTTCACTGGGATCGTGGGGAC: 0.0576 ratio
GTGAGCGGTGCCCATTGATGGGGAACATCTTCCCCCTCTTCCTTGCCCCACCAGCTCACCTACGGGGGTTATTTGCAGATAGGAAAATAAATAAAGCCGGCATTCGTTAACGCAGTTCTGGCGCAAACTGCTGTTTGCTCTGCATCTAACATGGTCCTTACGCGAGGCGTGGCTCCGGGAGAGCAAAGCACCGTGTCAGGCGCATGATCCGGGGTGGCCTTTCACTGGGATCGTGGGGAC: 0.36 ratio
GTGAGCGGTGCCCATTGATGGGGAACATTATTTCATTATACAAATATAAATGTCATTCTTTGATTTTAGAAGAAATCATGATATGTCATTCTATTGAGTGCTAACTAAAAGTTCCCTTTGTTTACTTAGCTTTCTCTTAGTCATAAGAAAGAAGAAGATCTCTTGCGTGAAAACAGCATGTTGCGGGAAGAAATTGCCAAGCTAAGACTGGAACTAGATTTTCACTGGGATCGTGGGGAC: 0.541 ratio
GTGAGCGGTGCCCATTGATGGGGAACATCTTCCCCCTCTTCCTTGCCCCACCAGCTCACCTACGGGGGTTATTTGCACAAAGGAAAATAAATAAAGCCGGCATTCGTTAACCCTCTTCTGGCGCAAACTGCTGTTTGCTCTGGATGAATCATGGTCCTTTGGCGACGCCAGGCTCCGGGAGAGCAAAGCACCGTGTCAGGGCCATGATCCGGGCTCGCCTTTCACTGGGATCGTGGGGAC: 0.371 ratio
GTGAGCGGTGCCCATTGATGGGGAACATCTTCCCCCTCTTCCTTGCCCCACCAGCTCACCTTCCCGGGTTATTTGCAGATAGGAAAATAAATAAAGCCGGCATTCGTTAACCCTCTTCTGGCGCAAACTGCTGTTTGCTCTGGTCCTTTGGCGACGCCAGGCGATGAATCATGTCCGGGAGAGCAAAGCACCGTGTCAGGGCCATGATCCGGGGTGGCCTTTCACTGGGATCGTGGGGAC: 0.372 ratio
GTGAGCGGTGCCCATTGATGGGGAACATCTTCCCCCTCTTCCTTGCCCCACCAGCTCACCTACGGGGGTTATTTGCACAAAGGAAAATAAATAAAGCCGGCATTCGTTAACCCTCTTCTGGCGCAAACTGCTGTTTGCTCTGGATGAATCATGGTCCTTTGGCGAGGCGTGGCTCCGGGAGAGCAAAGCACCGTGTCAGGGCCATGATCCGGGGTGGCCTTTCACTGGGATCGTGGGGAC: 0.379 ratio
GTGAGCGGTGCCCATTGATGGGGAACCACAAAGCAACTAGACAAATATTGATTTTGTAGTTACTGTAAAGGATTGAACAAAAATATGAAGAGCAGAGTTTCTACTCAAATGTGATCAAAGTCAACACTGAGGATCTGACCAGATTAAAACAATGCTACTAACCTGGATAAGGTGGCATCCCCCGAAAGACTATTTTCTTACCCTTTTTTGTTTGTTTGATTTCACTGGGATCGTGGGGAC: 0.426 ratio

Study 4
Target: RNA binding protein fox-1 homolog 2, RRM domain, GST-SBP tag (RBFOX2, Homo sapiens, UniProt O43251-10, residues 100-194)
Technique: RNA Bind-n-Seq
Molecule type: RNA
Sample: in vitro
Tested at: 365 nM
Notes: natural RNA segment, single round, ends assumed
Reference: no-protein control
Reading: higher = stronger binding
Quantity: RBNS enrichment (R)
Target sequence (chain): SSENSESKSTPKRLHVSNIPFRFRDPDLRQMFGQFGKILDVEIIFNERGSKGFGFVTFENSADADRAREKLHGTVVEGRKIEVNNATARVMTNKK
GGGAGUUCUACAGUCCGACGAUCCUCCCCUAACAAAAUGGGCUGUCCCUGCCCAACAAGUCUGAAAUAGACCUUAAAACUGUGCUGCCUUAGUGGUAAGUAAGGGGUGGGGGUUGGACAGUGAAUCUUAAGAUUGGAAUUCUCGGGUGCCAA: 0.234
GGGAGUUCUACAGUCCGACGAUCAAAUAAAUUUGCACUGUUCAUUUUUCUGGCCUCGCUGUUCUCCAUAGAGCAAGGGUAAUCCUAGAAAAAAUUUUUUUUUUUUAAAUUAUGCAACGUAAGAUGUCCUCCUUUGGAAUUCUCGGGUGCCAA: 0.515
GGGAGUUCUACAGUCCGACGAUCUGACGAGAGAGCUUUAGAAUUUAAUAAAAUGUCAAAAAUACAAUUUGAUACCCUUAAAAAUUAUUCAUAGAUCUGGCUGCUCUGUACUACUGGAUGGGUGGAAUAGGGAAUGGAAUUCUCGGGUGCCAA: 0.777
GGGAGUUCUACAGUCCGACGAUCCCAACCCUGCCCCCUGAUCCCGGGCUGGAAGCCUUCCCUCCUUCACUUAAGUUAUUGUGUUAAACCAAAGUUUACAGUGUCUGUUGGUAGCAAGACCCCCUCCUCCCCUCUGGAAUUCUCGGGUGCCAA: 2.51
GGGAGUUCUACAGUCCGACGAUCUGAUGUGACAUAAUAGAUGUGAAUGUUAAUCACUGCUUGACUAUGUUAAUAAAGUUGUUUAACUAUAGAUGUUGCACUCUGAUUUUUAAUGAAAGGAAAUGAGUUUUCUUUGGAAUUCUCGGGUGCCAA: 0.784
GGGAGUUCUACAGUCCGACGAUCCCACCAUAAAACUGGAAGCUGCUUCCCCUGUAGUCCCCAUUUCAGUACCAGUUCUGCCAGCCACAGUGAGCCCCUAUUAUUACUUUCAGAUUGUCUGUGACACUCAAGCCUGGAAUUCUCGGGUGCCAA: 0.889
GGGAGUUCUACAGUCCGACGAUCGCUAGAGGGGUGUGUGGUAGGUCGAUAAGACUGUGCCAGUGCCUGCGGAACCAACACACCCUGCUGCCAGCUCCUCCAGCCACAGGCAUGGGACACUAAGCCGGGUCAUGUGGAAUUCUCGGGUGCCAA: 1.09
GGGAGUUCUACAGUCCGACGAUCGUAUCUUGUUACUAACUCAGUAUGUGUCAAUGUCAAAUACCAUGAAAUAAAGUCUGAAAACCUUAAAUAGGGACUGUGUUUGUACUUGACAGCCGGGUGGCUUCUUGCUCUGGAAUUCUCGGGUGCCAA: 0.739
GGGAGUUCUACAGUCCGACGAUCGGAGCACACACUUCCAUUAUGCUUGGCACAUAGGUCUCCUUGUGGUGGGUGGGAUCUGGGGGAGGUAGAUUUUCCUCAUCUCUCUUCCUGCCUCCCUCCCAUCUCCUGAUUGGAAUUCUCGGGUGCCAA: 0.23
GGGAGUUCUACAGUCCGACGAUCCUAGGGUGUUGCGUGCUGUGCUAAGUAAAUUUUAAGUCUUUCAGUUUUAUAGAUACGGAAAACAAGGGUGACUCUUUACCACAGGAUGAAUAAAGAACUAAGUAAUAUGGUGGAAUUCUCGGGUGCCAA: 0.895
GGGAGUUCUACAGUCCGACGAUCAAACUUUAUCAUAUGGCAGAAGCCUCUAUUGUGUUAAAUAAAUUAGUAUUUCAUAUAUAUACAUAUAUAUGCACCUAUAUAAUGUGUAUAUAUAUAAAAAGGCAGCCAUUUGGAAUUCUCGGGUGCCAA: 0.755
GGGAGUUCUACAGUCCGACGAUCGUUUCCAAGAUGUCACGAGAAAAGCCCCAGAUGUGUACAGCACUCUAAGCAUUAACAGUCUCCCAGAAUCAAUAAUCGGUGGCAACAUAUCUCUGUAAAAACAAACACUGUGGAAUUCUCGGGUGCCAA: 0.45

Excerpt of the above (study 2):
ACAAGCTC: -0.185
CCAACCGC: -0.258
GCGCCCTA: -0.25
ACATCAAA: 0.186
ATCCACTA: 0.0888
AGAGGACG: -0.121
CCGTTAGG: -0.224
